# Assay results of several laboratories.
# A part holds a random share of what one study measured. Several values in a cell are separate wells, animals, samples, runs or records.

# Study 1
# Target: Membrane-associated tyrosine- and threonine-specific cdc2-inhibitory kinase (PKMYT1, Homo sapiens, UniProt Q99640)
# Read-out: binding
# Method: HTRF
# Construct (Q99640 1-499): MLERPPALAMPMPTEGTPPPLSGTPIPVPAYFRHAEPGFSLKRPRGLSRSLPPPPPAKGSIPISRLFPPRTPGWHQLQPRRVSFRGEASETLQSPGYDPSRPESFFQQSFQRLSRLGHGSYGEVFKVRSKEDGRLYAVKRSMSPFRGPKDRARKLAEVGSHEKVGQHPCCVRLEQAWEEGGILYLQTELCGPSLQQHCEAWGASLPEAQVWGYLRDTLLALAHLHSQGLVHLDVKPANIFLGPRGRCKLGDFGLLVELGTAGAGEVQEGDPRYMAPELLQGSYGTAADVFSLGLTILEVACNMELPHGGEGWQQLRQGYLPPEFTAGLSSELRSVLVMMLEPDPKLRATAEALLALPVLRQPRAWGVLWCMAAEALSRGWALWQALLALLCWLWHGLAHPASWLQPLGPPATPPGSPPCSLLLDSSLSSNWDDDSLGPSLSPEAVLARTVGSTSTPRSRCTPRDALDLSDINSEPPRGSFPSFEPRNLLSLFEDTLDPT
Structure (SMILES),IC50
Cc1ccc(O)c(C)c1-c1cnc2[nH]c(-c3cnc(N4CCC(CN5CCN(c6ccc7c8c(cccc68)C(=O)N7C6CCC(=O)NC6=O)CC5)CC4)nc3)cc2c1C#N (racemic),8.2 nM
Cc1ccc(O)c(C)c1-c1cnc2[nH]c(-c3cnc(N4CCC(CN5CCN(c6ccc(C(=O)NC7CCC(=O)NC7=O)c(F)c6)CC5)CC4)nc3)cc2c1C#N (racemic),4.3 nM
Cc1ccc(O)c(C)c1-c1cnc2[nH]c(-c3cnc(N4CCC(CN5CCN(c6ccc(N7CCC(=O)NC7=O)cc6F)CC5)CC4)nc3)cc2c1C#N,3.8 nM

# Study 2
# Compound: CCCCC[C@@H]1CC(=O)N[C@@H](C(C)C)C(=O)N[C@H](CCCNC(=N)N)C(=O)N[C@@H](C(C)C)C(=O)NCC(=O)N2CCC[C@H]2C(=O)N[C@@H](CC(C)C)C(=O)N[C@H](CCCNC(=N)N)C(=O)N[C@@H](CCC(=O)O)C(=O)N[C@H](Cc2ccc(O)cc2)C(=O)N[C@H](Cc2c[nH]c3ccccc23)C(=O)NCCCC(=O)O1
# Organism: Staphylococcus aureus
# Strain: USA300
# Concentration: 2 x MIC
conditions,viable cells
360 min,500 CFU/mL and 400 CFU/mL
30 min,1700 CFU/mL and 1800 CFU/mL and 2100 CFU/mL
60 min,1200 CFU/mL and 1500 CFU/mL and 1400 CFU/mL
300 min,500 CFU/mL and 600 CFU/mL and 400 CFU/mL
240 min,500 CFU/mL and 600 CFU/mL and 300 CFU/mL

# Study 3
# Compound: C#CCN1C(=O)C(O)(C(=O)O)Oc2cc(F)ccc21 (stereo not shown)
organism,assay,system,conditions,inhibition
Arabidopsis thaliana,hypocotyl length,Col-0,"100 µg/mL, 7 days, seed germination, dark",95.8%
Arabidopsis thaliana,hypocotyl length,Col-0,"12.5 µg/mL, 7 days, seed germination, dark",29.6%
Arabidopsis thaliana,hypocotyl length,Col-0,"25.0 µg/mL, 7 days, seed germination, dark",41%
Glycine max,fresh weight,,"soil surface spray, 150 g ai/ha, 21 days, pre-emergence crop safety",19.8% and 20% and 19.3%
Avena fatua,fresh weight,,"150 g ai/ha, pre-emergence treatment",100%
Amaranthus retroflexus,fresh weight,,"150 g ai/ha, post-emergence treatment",67.5% and 65.3% and 68.6%

# Study 4
# SMILES: Cn1cc(-c2cccc(CN3CCC4(CC3)COc3c4ccc4c3CN([C@H]3CCC(=O)NC3=O)C4=O)c2)cn1
# Species: Crbn I391V mouse, MC-38 tumour
conditions,tumour volume
"oral, daily, 30 mg/kg, day 12, anti-PD1 combination study",284 mm3 and 215 mm3 and 224 mm3 and 383 mm3 and 584 mm3
"30 mg/kg, day 8, added: anti-LAG3 antibody 10 mg/kg weekly",248 mm3 and 614 mm3 and 452 mm3 and 596 mm3 and 169 mm3
"30 mg/kg, day 4, added: anti-LAG3 antibody 10 mg/kg weekly",198 mm3 and 105 mm3 and 192 mm3 and 117 mm3
"30 mg/kg, day 27, added: anti-LAG3 antibody 10 mg/kg weekly",691 mm3 and 1760 mm3 and 79.8 mm3 and 1470 mm3 and 596 mm3
"30 mg/kg, day 46, added: anti-LAG3 antibody 10 mg/kg weekly",912 mm3
"oral, daily, 30 mg/kg, day 28, anti-PD1 combination study",1690 mm3 and 701 mm3 and 819 mm3 and 1620 mm3 and 976 mm3
"30 mg/kg, day 17, added: anti-LAG3 antibody 10 mg/kg weekly",1120 mm3 and 230 mm3 and 262 mm3 and 962 mm3 and 849 mm3 and 333 mm3 and 45.9 mm3 and 552 mm3
"oral, daily, 30 mg/kg, day 22, anti-PD1 combination study",634 mm3 and 1320 mm3 and 2010 mm3 and 452 mm3
"oral, 30 mg/kg once daily, day 14",87.7 mm3 and 42.4 mm3 and 48.1 mm3 and 159 mm3 and 500 mm3
"oral, 30 mg/kg once daily, day 7",281 mm3 and 75.1 mm3 and 341 mm3 and 133 mm3 and 247 mm3
"30 mg/kg, day 39, added: anti-LAG3 antibody 10 mg/kg weekly",285 mm3
